Results pooled from the literature.
Parts stem from different laboratories: compare values within a part only. Positions count from the first letter of the parent shown.
Chain of UniProt P08922 (whole entry, looked up): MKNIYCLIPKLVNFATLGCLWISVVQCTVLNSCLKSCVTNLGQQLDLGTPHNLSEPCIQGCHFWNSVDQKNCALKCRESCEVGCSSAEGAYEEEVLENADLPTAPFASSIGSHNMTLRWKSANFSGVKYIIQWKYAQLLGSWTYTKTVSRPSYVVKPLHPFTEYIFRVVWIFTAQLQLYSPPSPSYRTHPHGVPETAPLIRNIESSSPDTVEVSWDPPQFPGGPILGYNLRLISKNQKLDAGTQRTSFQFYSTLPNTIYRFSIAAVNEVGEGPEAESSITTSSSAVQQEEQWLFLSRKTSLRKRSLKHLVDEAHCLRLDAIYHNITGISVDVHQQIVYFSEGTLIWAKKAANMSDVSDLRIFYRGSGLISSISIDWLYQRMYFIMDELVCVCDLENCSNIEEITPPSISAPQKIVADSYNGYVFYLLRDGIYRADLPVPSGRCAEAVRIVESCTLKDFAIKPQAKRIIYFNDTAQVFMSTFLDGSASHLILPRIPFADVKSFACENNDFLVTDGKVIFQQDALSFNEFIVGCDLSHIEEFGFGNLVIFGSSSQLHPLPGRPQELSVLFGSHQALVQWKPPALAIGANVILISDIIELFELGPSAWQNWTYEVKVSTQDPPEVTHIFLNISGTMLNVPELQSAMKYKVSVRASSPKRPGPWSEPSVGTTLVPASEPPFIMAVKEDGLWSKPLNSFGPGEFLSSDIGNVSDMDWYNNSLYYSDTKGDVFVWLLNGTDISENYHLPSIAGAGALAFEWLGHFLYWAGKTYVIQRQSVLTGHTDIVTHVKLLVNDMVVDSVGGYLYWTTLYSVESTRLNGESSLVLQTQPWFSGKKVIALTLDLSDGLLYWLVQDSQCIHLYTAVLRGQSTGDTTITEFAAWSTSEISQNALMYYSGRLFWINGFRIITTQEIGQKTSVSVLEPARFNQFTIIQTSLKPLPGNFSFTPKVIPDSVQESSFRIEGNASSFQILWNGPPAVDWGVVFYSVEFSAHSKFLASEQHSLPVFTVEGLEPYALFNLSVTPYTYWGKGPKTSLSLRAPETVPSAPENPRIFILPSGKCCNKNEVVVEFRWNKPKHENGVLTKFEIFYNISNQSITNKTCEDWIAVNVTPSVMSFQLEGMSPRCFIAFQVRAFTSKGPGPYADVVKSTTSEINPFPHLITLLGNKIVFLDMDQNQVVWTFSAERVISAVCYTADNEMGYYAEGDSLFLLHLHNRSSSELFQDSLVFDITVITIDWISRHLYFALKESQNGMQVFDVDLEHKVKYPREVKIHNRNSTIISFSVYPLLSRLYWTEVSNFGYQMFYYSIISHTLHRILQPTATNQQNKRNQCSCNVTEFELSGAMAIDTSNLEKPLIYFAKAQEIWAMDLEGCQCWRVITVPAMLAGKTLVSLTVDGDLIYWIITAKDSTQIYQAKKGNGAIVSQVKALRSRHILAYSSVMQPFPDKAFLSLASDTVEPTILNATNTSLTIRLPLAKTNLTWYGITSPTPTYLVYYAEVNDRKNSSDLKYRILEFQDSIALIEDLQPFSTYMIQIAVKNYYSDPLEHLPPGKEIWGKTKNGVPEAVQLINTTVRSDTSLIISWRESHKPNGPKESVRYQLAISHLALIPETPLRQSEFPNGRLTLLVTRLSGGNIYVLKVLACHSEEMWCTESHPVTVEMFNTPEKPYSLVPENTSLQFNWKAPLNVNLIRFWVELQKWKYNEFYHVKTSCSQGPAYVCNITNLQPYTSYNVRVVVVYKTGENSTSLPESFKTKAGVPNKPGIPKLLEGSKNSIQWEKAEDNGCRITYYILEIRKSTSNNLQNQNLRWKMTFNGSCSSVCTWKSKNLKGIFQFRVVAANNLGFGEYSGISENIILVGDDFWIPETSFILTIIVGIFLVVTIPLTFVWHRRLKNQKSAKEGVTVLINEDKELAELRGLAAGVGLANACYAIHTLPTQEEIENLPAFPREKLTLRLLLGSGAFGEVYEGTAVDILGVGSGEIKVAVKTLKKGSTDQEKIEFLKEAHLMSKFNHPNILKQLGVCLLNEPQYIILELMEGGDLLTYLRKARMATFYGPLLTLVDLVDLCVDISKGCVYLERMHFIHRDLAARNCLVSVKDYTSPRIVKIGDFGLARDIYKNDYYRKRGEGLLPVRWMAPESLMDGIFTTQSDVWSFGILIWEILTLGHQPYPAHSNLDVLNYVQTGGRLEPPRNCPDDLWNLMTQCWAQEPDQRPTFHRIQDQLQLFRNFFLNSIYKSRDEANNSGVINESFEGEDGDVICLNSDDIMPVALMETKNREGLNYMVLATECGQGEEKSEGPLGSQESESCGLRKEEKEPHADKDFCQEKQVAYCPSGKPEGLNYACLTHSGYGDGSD
Chain of UniProt Q8WTQ7 (whole entry, looked up): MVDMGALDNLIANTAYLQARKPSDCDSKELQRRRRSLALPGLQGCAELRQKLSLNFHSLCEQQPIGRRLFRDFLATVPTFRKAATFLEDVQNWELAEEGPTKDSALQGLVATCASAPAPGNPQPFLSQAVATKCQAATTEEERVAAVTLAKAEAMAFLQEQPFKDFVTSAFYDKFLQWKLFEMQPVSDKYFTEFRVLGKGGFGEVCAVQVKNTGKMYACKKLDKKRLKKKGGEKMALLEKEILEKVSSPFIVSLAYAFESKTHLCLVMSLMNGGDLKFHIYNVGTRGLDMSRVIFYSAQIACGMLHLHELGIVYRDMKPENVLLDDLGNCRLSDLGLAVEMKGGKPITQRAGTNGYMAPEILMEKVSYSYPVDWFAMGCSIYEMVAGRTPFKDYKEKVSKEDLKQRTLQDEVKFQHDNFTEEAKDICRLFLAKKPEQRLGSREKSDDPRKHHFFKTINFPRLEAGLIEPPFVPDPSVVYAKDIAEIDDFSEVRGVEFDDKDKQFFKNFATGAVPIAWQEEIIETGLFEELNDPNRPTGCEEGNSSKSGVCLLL
Chain of UniProt P30530 (whole entry, looked up): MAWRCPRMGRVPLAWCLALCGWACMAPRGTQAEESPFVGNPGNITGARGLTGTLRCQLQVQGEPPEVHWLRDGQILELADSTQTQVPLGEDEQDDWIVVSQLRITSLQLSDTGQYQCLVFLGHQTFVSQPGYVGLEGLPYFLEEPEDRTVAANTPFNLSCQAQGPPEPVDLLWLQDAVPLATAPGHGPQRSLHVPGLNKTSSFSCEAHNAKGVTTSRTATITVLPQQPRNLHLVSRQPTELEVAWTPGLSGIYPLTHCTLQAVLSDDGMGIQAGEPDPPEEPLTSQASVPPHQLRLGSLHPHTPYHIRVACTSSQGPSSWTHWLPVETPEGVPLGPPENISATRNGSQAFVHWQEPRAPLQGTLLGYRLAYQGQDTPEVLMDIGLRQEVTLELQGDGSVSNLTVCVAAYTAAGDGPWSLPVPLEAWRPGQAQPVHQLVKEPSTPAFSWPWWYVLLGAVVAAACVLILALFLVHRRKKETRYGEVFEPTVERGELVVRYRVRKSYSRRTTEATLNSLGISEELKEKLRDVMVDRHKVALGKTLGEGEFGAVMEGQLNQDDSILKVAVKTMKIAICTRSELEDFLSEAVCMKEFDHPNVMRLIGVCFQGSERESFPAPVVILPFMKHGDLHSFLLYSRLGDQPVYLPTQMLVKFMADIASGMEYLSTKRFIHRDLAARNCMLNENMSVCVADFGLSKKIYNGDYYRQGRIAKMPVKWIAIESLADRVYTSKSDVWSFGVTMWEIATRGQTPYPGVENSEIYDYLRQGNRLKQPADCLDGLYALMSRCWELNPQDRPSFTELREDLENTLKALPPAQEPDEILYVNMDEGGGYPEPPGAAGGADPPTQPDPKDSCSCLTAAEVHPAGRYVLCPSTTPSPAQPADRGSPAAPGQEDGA
Chain of UniProt P06239 (whole entry, looked up): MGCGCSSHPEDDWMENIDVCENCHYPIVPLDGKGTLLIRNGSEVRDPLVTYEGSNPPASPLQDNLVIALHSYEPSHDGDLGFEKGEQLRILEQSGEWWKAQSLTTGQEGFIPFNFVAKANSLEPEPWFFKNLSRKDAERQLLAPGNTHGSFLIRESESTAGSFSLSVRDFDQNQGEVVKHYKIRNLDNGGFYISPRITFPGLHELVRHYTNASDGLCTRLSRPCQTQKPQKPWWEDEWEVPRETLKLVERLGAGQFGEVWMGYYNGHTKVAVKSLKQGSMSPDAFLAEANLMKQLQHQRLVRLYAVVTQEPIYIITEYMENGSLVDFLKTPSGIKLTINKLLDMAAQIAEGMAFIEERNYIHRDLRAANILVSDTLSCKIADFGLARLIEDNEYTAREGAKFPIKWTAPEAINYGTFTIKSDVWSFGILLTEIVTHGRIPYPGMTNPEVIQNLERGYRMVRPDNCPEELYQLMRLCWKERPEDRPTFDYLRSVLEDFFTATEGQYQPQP
Chain of UniProt P46734 (whole entry, looked up): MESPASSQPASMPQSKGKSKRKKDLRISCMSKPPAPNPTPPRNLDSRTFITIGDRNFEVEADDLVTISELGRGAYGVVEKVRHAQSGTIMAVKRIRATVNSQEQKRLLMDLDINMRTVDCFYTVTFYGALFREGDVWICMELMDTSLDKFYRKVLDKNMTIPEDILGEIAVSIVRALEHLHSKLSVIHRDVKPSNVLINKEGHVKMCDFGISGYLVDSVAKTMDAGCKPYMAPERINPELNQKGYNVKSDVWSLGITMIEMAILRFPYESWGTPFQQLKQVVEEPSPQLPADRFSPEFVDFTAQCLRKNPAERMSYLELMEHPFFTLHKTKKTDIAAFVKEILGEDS
Chain of UniProt O00506 (whole entry, looked up): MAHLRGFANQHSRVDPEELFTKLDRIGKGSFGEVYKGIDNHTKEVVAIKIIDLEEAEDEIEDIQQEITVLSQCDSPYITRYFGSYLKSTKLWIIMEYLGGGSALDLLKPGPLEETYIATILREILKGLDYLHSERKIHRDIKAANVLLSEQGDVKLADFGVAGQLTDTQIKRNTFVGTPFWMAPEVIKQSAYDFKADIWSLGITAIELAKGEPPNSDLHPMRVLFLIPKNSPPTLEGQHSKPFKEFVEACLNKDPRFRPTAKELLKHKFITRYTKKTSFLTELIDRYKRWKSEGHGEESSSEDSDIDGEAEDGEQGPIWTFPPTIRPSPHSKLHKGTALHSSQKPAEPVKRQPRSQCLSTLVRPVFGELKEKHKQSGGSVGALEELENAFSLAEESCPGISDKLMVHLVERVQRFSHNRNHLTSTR

Sample 1
Change: G102W
Target: ABI1, truncated, D143A, DHFR fusion (Arabidopsis thaliana)
Method: DHFR PCA, deep sequencing
Medium: yeast
Notes: methotrexate growth selection, single substitutions
Relative to: wild-type fitted maximum
Reading: higher = stronger binding
Starting sequence: PYL1, truncated, DHFR fusion (Arabidopsis thaliana); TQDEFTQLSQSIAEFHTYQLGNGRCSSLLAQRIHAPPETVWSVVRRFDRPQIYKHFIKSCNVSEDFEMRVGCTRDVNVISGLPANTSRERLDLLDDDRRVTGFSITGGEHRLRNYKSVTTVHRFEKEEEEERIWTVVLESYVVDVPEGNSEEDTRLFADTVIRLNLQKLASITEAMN; partner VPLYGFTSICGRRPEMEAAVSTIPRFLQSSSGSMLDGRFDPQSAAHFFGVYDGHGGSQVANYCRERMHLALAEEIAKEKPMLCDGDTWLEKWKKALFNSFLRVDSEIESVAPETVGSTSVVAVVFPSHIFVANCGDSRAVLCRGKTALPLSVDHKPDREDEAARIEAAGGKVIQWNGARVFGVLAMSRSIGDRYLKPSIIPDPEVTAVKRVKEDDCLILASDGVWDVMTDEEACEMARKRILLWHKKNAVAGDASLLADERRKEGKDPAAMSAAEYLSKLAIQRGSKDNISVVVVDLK
setting | relative binding score [%]
added: (+)-ABA 200 µM | 14
added: (+)-ABA 4.8 µM | 12.8
added: (+)-ABA 2500 µM | 20.3
added: (+)-ABA 58 µM | 22.1
added: (+)-ABA 0.11 µM | 6.14
added: (+)-ABA 17 µM | 21.9

Sample 2
SMILES: CS(=O)(=O)NCC[C@H](NC(=O)c1cncc2c1cnn2-c1ccc(F)cc1)c1ccnc(S(C)(=O)=O)c1
Observed: cell-free assay
Method: competition with immobilised ligand
Concentration: 1 µM
target | remaining binding [%]
COQ8B (Homo sapiens, UniProt Q96D53) | 100
GRK7 (Homo sapiens, UniProt Q8WTQ7) | 100
PIK3CG (Homo sapiens, UniProt P48736) | 80
RPS6KB1 (Homo sapiens, UniProt P23443) | 86
TAOK2 (Homo sapiens, UniProt Q9UL54) | 85
CDK8 (Homo sapiens, UniProt P49336) | 100
SIK3 (Homo sapiens, UniProt Q9Y2K2) | 98
AXL (Homo sapiens, UniProt P30530) | 95
Ribosomal protein S6 kinase alpha-5, N-terminal kinase domain (RPS6KA5, Homo sapiens, UniProt O75582) | 88
MAP2K3 (Homo sapiens, UniProt P46734) | 100
MAPK7 (Homo sapiens, UniProt Q13164) | 100
TGFBR2 (Homo sapiens, UniProt P37173) | 96
LCK (Homo sapiens, UniProt P06239) | 100
ROS1 (Homo sapiens, UniProt P08922) | 94
STK25 (Homo sapiens, UniProt O00506) | 78

Sample 3
Target: PABPC1L2, full length, GST fusion (mouse, UniProt A0ABA7IW68)
Method: RNAcompete
Form: RNA
Medium: in vitro
Concentration: 20 nM
Notes: 7-mer, probes averaged, single round
Relative to: mean of 7-mers
Reading: higher = stronger binding
Residues (chain): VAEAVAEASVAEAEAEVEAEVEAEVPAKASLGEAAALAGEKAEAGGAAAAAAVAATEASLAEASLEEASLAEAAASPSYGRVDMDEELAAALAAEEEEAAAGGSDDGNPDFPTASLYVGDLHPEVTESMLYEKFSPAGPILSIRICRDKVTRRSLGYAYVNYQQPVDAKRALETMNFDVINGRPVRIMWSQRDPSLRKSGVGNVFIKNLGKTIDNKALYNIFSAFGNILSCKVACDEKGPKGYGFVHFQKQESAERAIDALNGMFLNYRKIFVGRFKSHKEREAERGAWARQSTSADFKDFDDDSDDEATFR
Sequence | 7-mer Z-score
GUGAAAA | 3.59
AUUUAAC | -0.0718
CCAUCUU | -0.329
ACUGUGC | -0.162
GAUACCG | -0.3
CCGAGAC | -0.184
UCGUGCC | -0.291
CUCUUUC | -0.44

Other studies, line by line
SMILES | test system | setting | endpoint | result
Clc1ccc(-c2nc3cnc4ccccc4c3s2)cc1 | mouse, microsomes or S9 | 2 µM, 0.5 h | remaining compound | 0.511%

Excerpt of the above (sample 3):
Sequence | 7-mer Z-score
CUCUUUC | -0.44
CCAUCUU | -0.329
